Results from different studies.
Protocols differ between the studies behind these lines. “And” joins repeats or separate records; there may be more than shown. ± gives the spread as reported.
ESR2: Estrogen receptor beta (ESR2, Homo sapiens, UniProt Q92731)
HTR2A: 5-hydroxytryptamine receptor 2A (HTR2A, Homo sapiens, UniProt P28223)
CAMK2B: Calcium/calmodulin-dependent protein kinase type II subunit beta (CAMK2B, Homo sapiens, UniProt Q13554)
Histone acetyltransferase type B catalytic subunit: Histone acetyltransferase type B catalytic subunit (Homo sapiens, UniProt O14929)
T1: RNA aptamer; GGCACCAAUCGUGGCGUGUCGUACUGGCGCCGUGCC
T2: neomycin riboswitch RNA U14C, 5'-triphosphate, 2',3'-cyclic phosphate; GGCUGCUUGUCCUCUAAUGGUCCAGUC

C[C@]12CC[C@@H]3c4ccc(O)cc4CC[C@H]3[C@@H]1CC[C@@H]2O — Vmax (UGT1A1 (Homo sapiens, UniProt P22309); glucuronidation, substrate; human liver microsomes): 74 ± 3 pmol/min/mg protein
COc1cc(/C=N/NC(=O)c2cc3c(ccc4ccccc43)o2)cc(OC)c1O — activity (ESR2; PGC-1α coactivator displacement, inhibitor, TR-FRET; up to 100 µM, added: estradiol): inactive
CCNC(=O)/C=C/c1cccc(Br)c1 — remaining transport activity (SLC6A19 (Homo sapiens, UniProt Q695T7); inhibitor, L-[14C]leucine uptake; CHO-BC cells; 0.003 µM, 6 min, unit not given, added: GPNA 3 mM, JPH203 3 µM; reference: uninhibited cells): 0.975
C=CC(=O)N1CCC(C(=O)NCC(=O)N2CCN(c3nc(-c4cnc(N)nc4C(F)F)nc(N4CCOCC4)n3)CC2)CC1 — remaining binding (MAP3K13 (Homo sapiens, UniProt O43283); KINOMEscan; 1 µM): 100%
c1cncc(OC[C@@H]2CN(CCN3CCc4ccccc43)CCO2)c1 — inhibition (HTR2A; radioligand binding; concentration not given, added: [3H]ketanserin): 61.8%
O=C(COP(=O)(O)O)[C@@H](O)[C@H](O)[C@H](O)COP(=O)(O)O — thermal stability ratio (Long-chain-fatty-acid--CoA ligase 5 (Homo sapiens, UniProt Q9ULC5); thermal proteome profiling, item: ACSL5; HepG2 cell lysate; concentration not given, 57 over 37 °C, mean; reference: compound over control): 0.699
CC[C@@H]1[C@H](F)C(=O)N[C@@H]1COc1nccc2cc(C(N)=O)c(OC)cc12 — inhibition (CAMK2B; ATP-site probe binding, ActivX profiling; THP-1 cell lysate; 0.2 mM, Lys1 site): 4.9%
NCCCC(=O)O — normalised MST signal (SLC6A6 (Homo sapiens, UniProt P31641, L306A); binding, microscale thermophoresis; 1.95 µM, room temperature, added: 50 nM labelled protein; higher = more binding): -0.143
CNc1ncc2c(/C=C/C(=O)N3CCC(OC)CC3)nn(Cc3cccc(C(F)(F)F)c3)c2n1 — remaining activity (NEK6 (Homo sapiens, UniProt Q9HC98); kinase activity, inhibitor; 1 µM; reference: untreated control): 93%
Cc1cccc(N2CC(C(=O)O)CC2=O)c1 (centres unmarked) — log fold enrichment (Baculoviral IAP repeat-containing protein 3, BIR1 domain (BIRC3, Homo sapiens, UniProt Q13489); binding, affinity selection mass spectrometry; reference: other proteins in batch): -0.0061
Nc1nc2c(ncn2[C@@H]2O[C@H](COP(=O)(O)O)[C@@H](O)[C@H]2O)c(=O)[nH]1 — reaction rate (GUK1 (Homo sapiens, UniProt Q16774, R41A); enzyme activity, NADH-coupled; 62.5 µM): 1.19 s⁻¹ and 0.232 s⁻¹ and 0.552 s⁻¹
C=CC(=O)N1CCC(COCC(=O)N2CCN(c3nc(-c4cnc(N)nc4C(F)F)nc(N4CCOC[C@@H]4C)n3)CC2)CC1 — remaining binding (CAMK2B; KINOMEscan; 1 µM): 100%
O=C1C[C@@H](c2ccc(O)cc2)Oc2cc(O)cc(O)c21 — EC50 (ESR2; array formation, agonist; GFP-ERβ PRL-HeLa; 1 h): 870 nM
Nc1ncnc2c1ncn2[C@@H]1O[C@H](COP(=O)(O)CP(=O)(O)OP(=O)(O)O)[C@@H](O)[C@H]1O — specific binding (P2X purinoceptor 1 (P2RX1, Homo sapiens, UniProt P51575, R139A); saturation binding; HEK293; 103 nM): 4220 CCPM and 4380 CCPM
CC(=O)N[C@H](C(=O)N1C[C@H](O)C[C@H]1C(=O)NCc1ccc(-c2scnc2C)cc1)C(C)(C)SCCCCCCNC(=O)C[C@@H]1N=C(c2ccc(Cl)cc2)c2c(sc(C)c2C)-n2c(C)nnc21 — ΔH (Bromodomain-containing protein 4, BD1 (BRD4, Homo sapiens, UniProt O60885); binding, ITC; 25 °C, compound in cell, protein in syringe): -18.4 ± 0.7 kcal/mol
CN(CCCCNC(=O)c1cc2ccccc2[nH]1)[C@@H]1Cc2cccc3[nH]c(=O)n(c23)C1 — Hill slope (HTR2A; binding; added: [3H]5-HT): -1.06 ± 0.18
[O-][S+]1CCCCS1 (centres unmarked) — SOD1 dimer fraction (SOD1 (Homo sapiens, UniProt P00441, G94A); LC-MS; brain homogenate; 1 µM, 1 h, 37 °C): 0.35%
O=c1cc(-c2ccccc2)oc2ccc(O)cc12 — Vmax (UGT1A9 (Homo sapiens, UniProt O60656); glucuronidation, substrate; recombinant enzyme): 76 pmol/min/mg
CC1(C)CC2(C)OC(=O)NC2(C)c2ccccc21 (centres unmarked) — log fold enrichment (STUB1 (Homo sapiens, UniProt Q9UNE7); binding, affinity selection mass spectrometry; reference: other proteins in batch): -0.00338
C[C@]12C[C@H](O)[C@H]3[C@@H](CCC4=CC(=O)CC[C@@]43C)[C@@H]1CC[C@@H]2C(=O)CO — kon (CYP11B2 (Homo sapiens, UniProt P19099); nanodiscs; 25 °C, fast phase): 70000 ± 10000 M⁻¹ s⁻¹
CC1CCCN(C(=O)c2cc3ncccn3n2)C1 (centres unmarked) — log fold enrichment (Histone acetyltransferase type B catalytic subunit; binding, affinity selection mass spectrometry; reference: other proteins in batch): 0.0426
O=c1nc(SCc2ccc(C(F)(F)F)cc2)nc(SCc2csc3ccc(Cl)cc23)[nH]1 — relaxed DNA (TOP2A (Homo sapiens, UniProt P11388); DNA relaxation; 31.25 µM, replicate 2): 0.7%
C[C@@H](O)CNC(C)(C)CC(=O)N[C@@H]1CCc2ccccc2N(Cc2ccc(-c3ccccc3-c3nn[nH]n3)cc2)C1=O — Emax (GHSR (Homo sapiens, UniProt Q92847); intracellular calcium mobilization, agonist; HEK293 cells stably expressing receptor): 100%
CCCCC[S+]([O-])c1n[nH]c(N)n1 (centres unmarked) — fold enrichment (Histone acetyltransferase type B catalytic subunit; binding, affinity selection mass spectrometry; reference: other proteins in batch): 0.874
NCC(=O)O — charge coupling (Sodium- and chloride-dependent neutral and basic amino acid transporter B(0+) (Slc6a14, Mus musculus, UniProt Q9JMA9); transport, current and [14C] uptake; Xenopus oocytes): 2.08 charges per glycine
Cc1ccccc1C1CC(=O)c2c(C)nc(N)nc2C1 (centres unmarked) — log fold enrichment (RFWD3 (Homo sapiens, UniProt Q6PCD5); binding, affinity selection mass spectrometry; reference: other proteins in batch): -0.0483
CN(CCO)c1ccc(/C=C(\C#N)c2ccc(C#N)cc2)cc1 — binding (T1, RNA aptamer; fluorescence titration): no binding
Cc1ncccc1OC[C@@H]1CN(CCN2CCc3ccccc32)CCO1 — inhibition (HTR7 (Homo sapiens, UniProt P34969); radioligand binding; concentration not given, added: [3H]LSD): 39.2%
CC(C)CCC[C@@H](C)[C@H]1CC[C@H]2[C@@H]3CNC4=CC(=O)CC[C@]4(C)[C@H]3CC[C@]12C — Ki (uncompetitive) (3 beta-hydroxysteroid dehydrogenase/Delta 5-->4-isomerase (Mycobacterium tuberculosis, UniProt P9WQP7); inhibitor; added: NAD+ varied, DHEA 120 µM): 98 ± 12 nM
Nc1ncnc2c1ncn2[C@@H]1O[C@H](COP(=O)(O)OP(=O)(O)O)[C@@H](O)[C@H]1O — Km (CKMT1A (Homo sapiens, UniProt P12532, E265D); substrate, Kinase-Glo luminescence; pH 7.0, reverse reaction, E227D mutant, added: second substrate in excess): 11.4 ± 0.5 µM
O=C(CN1CCO[C@H](COc2cccc(Cl)c2)C1)N1CCc2ccccc21 — inhibition (HTR2A; radioligand binding; concentration not given, added: [3H]ketanserin): 60%
O=C1N[C@H](c2cncc(C#Cc3ccccc3)c2)[C@@H](c2ccccc2Cl)O1 — ED50 (Metabotropic glutamate receptor 5 (Macaca mulatta, UniProt A0ACM8QRY8); receptor occupancy, PET; rhesus monkey; intravenous): 0.11 ± 0.02 mg/kg
CC(C)=CCc1c(O)ccc(C(=O)/C=C/c2ccc(O)cc2)c1O — EC50 (ESR2; array formation, agonist; GFP-ERβ PRL-HeLa; 1 h): 174 nM
Nc1ccc2cc3ccc(N)cc3nc2c1 — entropic contribution TΔS° of binding (Chymotrypsinogen A, activated (alpha-chymotrypsin) (Bos taurus, UniProt P00766); isothermal titration calorimetry; concentration not given, 25 °C, added: 0.5 M betaine): -17.3 ± 0.98 kcal/mol
NC[C@H]1O[C@H](O[C@H]2[C@H](O[C@@H]3O[C@H](CO)[C@@H](O)[C@H]3O)[C@@H](O)[C@H](N)C[C@@H]2N)[C@H](N)[C@@H](O)[C@@H]1O — binding (T2, neomycin riboswitch RNA U14C, 5'-triphosphate, 2',3'-cyclic phosphate; NMR; pH 6.2, 10 °C): binds
NCCCCC(=O)O — normalised MST signal (SLC6A6 (Homo sapiens, UniProt P31641, Y138A); binding, microscale thermophoresis; 3.91 µM, room temperature, added: 50 nM labelled protein; higher = more binding): -0.0387
Nc1ncnc2c1ncn2[C@@H]1O[C@H](COP(=O)(O)OP(=O)(O)O)[C@@H](O)[C@H]1O — ΔH (GUK1 (Homo sapiens, UniProt Q16774); binding, isothermal titration calorimetry; molar ratio 1.955, fitted curve): -0.412 kcal/mol
O=C(O)[C@@H](O)[C@H](O)C(=O)O — thermal shift (Uncharacterized protein (Pelagibacter ubique, UniProt Q4FKX4); differential scanning fluorimetry; Candidatus Pelagibacter ubique; in-house screen): 2.23 °C
